Assay results from different studies.
A part holds a random share of what one study measured.

Series 1 — method: RNA Bind-n-Seq; molecule type: RNA; matrix: in vitro; tested at: 100 nM; relative to: input RNA pool; direction: higher = stronger binding
Target: RING finger protein unkempt homolog, zinc fingers 1-6, SBP tag (UNK, Homo sapiens, UniProt Q9C0B0, residues 30-357)
Sequence of UniProt Q9C0B0 (30-357, looked up): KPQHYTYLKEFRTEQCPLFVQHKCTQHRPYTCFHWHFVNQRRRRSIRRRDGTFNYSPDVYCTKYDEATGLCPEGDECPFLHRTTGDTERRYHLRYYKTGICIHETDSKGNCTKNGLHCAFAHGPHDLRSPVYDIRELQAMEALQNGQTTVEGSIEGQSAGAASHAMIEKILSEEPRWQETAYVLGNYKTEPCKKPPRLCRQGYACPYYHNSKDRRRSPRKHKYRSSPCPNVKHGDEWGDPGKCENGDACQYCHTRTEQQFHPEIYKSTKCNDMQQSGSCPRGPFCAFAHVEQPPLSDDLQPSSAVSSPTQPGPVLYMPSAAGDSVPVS
Setting: RNA with constant flanks, vertebrate orthologous sites, ends assumed
Oligonucleotide	bound/input enrichment
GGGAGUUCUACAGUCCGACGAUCCCCGGGAACUCCUCUGGGGACAGGUGGUGGGGCCCACUGGCCAUGUCAUCCAGGCUGUUUUAGCUUCAUUUUUUUAAAAAAAAUUAACAGUGCCCUUAUUAACCUGUAUGACUGAGAUUUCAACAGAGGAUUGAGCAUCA	0.488 ratio
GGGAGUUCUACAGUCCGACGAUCGCCUCCAACAGGCAAAUUCAGGGAGAGGUAGGUUUCAGGGAAUAUAAAUUUACUUAAUAUUAGUGGUCUUUAAGUAUAAACUUGAUGUAAUUGGUUUGGGAGGGGCAGUGAUGAUGACUUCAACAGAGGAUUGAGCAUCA	1.19 ratio
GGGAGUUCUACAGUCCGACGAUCACACUUACAUUGCGGCAUAUAGACGACAUGGAAGUAGACCAGCUCUGCUGAUCUGAAACUUAGAUUUUUUUAAUUAUGUACUGGGGACAGGUUUUUGUCGCUUUACAUUGCUUCCUAGUUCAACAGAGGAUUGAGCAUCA	5.56 ratio
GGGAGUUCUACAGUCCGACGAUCUUUUUUAAUUUAUUUUUCUUUCAUUUUCUUUUUUUUGGGGGUAAAGUUUGCUCUACCAAAUAGUGAUCGUAACAAACUGAUCUGUUAUGGAUGUUGCUAUAGUGACAUGCAAUUAUAUAUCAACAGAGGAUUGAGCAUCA	1.49 ratio
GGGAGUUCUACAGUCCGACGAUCAGUCAUGGAGAAGAAGAUACUAAAAAUAAUCUCAUGGCACUGAUACUAAUUUAUUUUUAUUAGUUUUACAAAAGUCAGGGUUCUUGUUUAUAAACAGCAGGUACUGACUAUUAAGGCAAACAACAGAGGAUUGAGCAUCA	0.225 ratio
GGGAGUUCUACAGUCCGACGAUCUAUCUUUAGGAUGAAGCUCUUACAUCAGGUGUCACAAGUCUGGAAAACAGAUGGGUUGAGCAGUUGUGAUUACAAAUUACUCUCUGUGGAUUACAAUCCUUUAUAUAUCAACAUCACAGUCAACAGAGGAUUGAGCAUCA	0.609 ratio
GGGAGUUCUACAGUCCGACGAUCCUGGCCAAGUUUCUUGCUUUUCUUAUCUUUUUCUUCUUCUUUUUUUCUUUUUUACUUUAUUCCUGUCACACACUCACAACGUCUGUCUCCUUCUCAGAAGAAGGGCUAGAGUUUUAACUUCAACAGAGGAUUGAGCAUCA	3.62 ratio
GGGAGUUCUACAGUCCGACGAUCAGAGAAUUUUCACCAAGAGUCUGAAGGUAGAAGUACAGGACCAUGGUUAUCUUCCUCAUUUAGAAAUAGGUGCACUCCUUUGUUCUCCAGAAGGAGACGAGAAGGAAGAGAUGAAUCCUCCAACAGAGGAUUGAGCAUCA	0.303 ratio
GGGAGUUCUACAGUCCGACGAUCUUCACUUCCAGGUUGGACCUAGUGGAAAAGUCAUAGGAAUUGACCACAUUAAAGAGCUAGUAGACGACUCAGUAAAUAAUGUCAGAAAGGAUGAUCCAAUGCUUUUGUCUUCAGGGAGAGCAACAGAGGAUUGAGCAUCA	0.764 ratio
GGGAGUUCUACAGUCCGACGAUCAAUUGCCUAUAAUAAUGAAAACCAACAGGAAUUUUUUUAUUUCUCAUUUCCCCAUAGGUUUAUUCAGUCCUUUUUCCCAGGCAGAUCAUUCUGAGUGUGCGUGUGUGUGUGCACAUGUUACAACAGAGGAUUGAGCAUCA	0.497 ratio
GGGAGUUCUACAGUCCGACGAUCGGGCCGCUUCGACGUGAAGAUCGAGGUGAAGAGCUGAUCGCAAGCACAGAUCUUUCCCACUAGCCAUUUAAGAAGUUAAAGAUACAAAAACCUACUAGUCUUGAACAAACUGUCAUACGUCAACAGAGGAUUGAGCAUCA	1.54 ratio

Series 2 — method: RNA Bind-n-Seq; molecule type: RNA; matrix: in vitro; tested at: 365 nM; relative to: no-protein control; direction: higher = stronger binding
Target: RNA binding protein fox-1 homolog 2, RRM domain, GST-SBP tag (RBFOX2, Homo sapiens, UniProt O43251-10, residues 100-194)
Setting: natural RNA segment, single round, ends assumed
Target sequence (chain): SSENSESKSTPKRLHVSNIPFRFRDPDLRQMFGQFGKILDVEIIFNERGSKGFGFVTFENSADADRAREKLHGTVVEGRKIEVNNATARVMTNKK
Oligonucleotide	RBNS enrichment (R)
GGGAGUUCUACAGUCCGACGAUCGAACUUGGAGGAGUUUGGCAAAGUCUGAAUAGGUCAACCUGCAGGCGUAACUAUUUUUGACCUAGUCAGUUUUUAAACAAUGUGCAUUUGAAGGAGUUAAUUAAAAGAGAUGGAAUUCUCGGGUGCCAA	0.588
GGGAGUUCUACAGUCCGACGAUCGAAACAGCUGCCUUAGCUUCAGGAACCUUGAGUACUGUGGGCAAUUUAGAAAACGGAAAUGCAGUUUGAAAUUCUGAAUUUGCAAAGUACUGUAACAGUAAUUUAUAGUAUGGAAUUCUCGGGUGCCAA	1.1
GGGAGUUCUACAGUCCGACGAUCACCUCCCCAUUGGGCUGAUGAGAAAAUACACGCAGGCCUAGCAUGGUGCCUGCCACCAUGGUGGGAUCCAGUAUGUUUUAUAAAUCUGAAUGAGUAAAUGGCUCACCAAUUGGAAUUCUCGGGUGCCAA	1.05
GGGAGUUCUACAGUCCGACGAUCUGGGUACAUGGCCCGCAGUGGCUUUUGCCCCAGAAAGGGGAAAGGAACACGCGGGUAGAUGAUUUCUAGCAGGCAGGAAGUCCUGUGCGGUGUCACCAUGAGCACCUCCAUGGAAUUCUCGGGUGCCAA	0.248
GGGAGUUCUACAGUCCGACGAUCAGGCCACCUCAGCCUGGACUUUGUUGUCCAUAUUGCUAUCAGCAUUUGGGGCAAAGCCAUUCAACAAGUCUGUAGGAAGUUCCAAACUUUCCCACAUUUUCCUGUUUUCUUGGAAUUCUCGGGUGCCAA	0.273
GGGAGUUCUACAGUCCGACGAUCAGAGCAGUUUGUUGACUUGUGUGCAAUGGGGAGAGGUACCAUGAUGACACUCACAGGGAGCCACUGUUCACUGACACUUGGAAGCGGUCAUUGUUAAUAUCACGGGCGUAUGGAAUUCUCGGGUGCCAA	0.433
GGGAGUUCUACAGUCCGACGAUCUAUCUAAUGCUUCAAGUUUGGUCUUGGGAAGCUGACAUUUGUGUAGAAGAUGGACUCUGAAAGACAUUCCAAGAGUGCCGCGGCAGCAUGGGAGCCUCUUAGUGAUUGUGUGGAAUUCUCGGGUGCCAA	9.66
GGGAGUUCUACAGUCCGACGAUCAAAGUCAUGGGACCACUUCUAGAAAUCUUUCAGCUGUCAGGCCUGUCAGUCUCAUGACAGUUUGUUGGUUGUGCCAAACACUUUAUUUGGGAAAGGAAAGCCCAGAUUUGUGGAAUUCUCGGGUGCCAA	0.264
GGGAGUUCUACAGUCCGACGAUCCUUAGAAGGUAGGAUUUUCUUCCCAGGGACCUCCUAUCACCCUACCCUGCUUCUUGAGGUCCCUGGAGCCCCAGGUGGGCUGAGGGGCAGGGAGCCGGCUGUGCCCAGUAUGGAAUUCUCGGGUGCCAA	0.389
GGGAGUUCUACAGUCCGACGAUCUUUUUGUACUGUAACUACCUCAUGGUUUGAAUGAUGAGCGUACUGCUGGUUGUAUUAACAGAGCACAUUUGUCGGGUGAGUCGUGUAUACAAACUUUUUUUUUUUAUCCUUGGAAUUCUCGGGUGCCAA	0.77
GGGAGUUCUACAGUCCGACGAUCCAGGCUCUUCAAGAAUACAAUAAUUAAGAAAAGGAGCCUCCUGAGAAGGCGUUGAGUAGACAGACUGUUGAGAGGCCACAGAGUGCACUUGGAAAAACUCAUUUCUGUGCUGGAAUUCUCGGGUGCCAA	0.321
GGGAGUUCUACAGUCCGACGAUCUAUCUGUCUGGACAUAGUUGUGUUCCUCUAAAUUGGAUGUACUAAAUAGUUUACAAGUUAUCCUACUCCACAGAUUUUGGUAUGUUUGUUAUCUGGACAUGAUUUUGCUAUGGAAUUCUCGGGUGCCAA	0.394

Series 3 — method: universal PBM; molecule type: double-stranded DNA, one strand shown; matrix: in vitro; tested at: 600 nM; direction: higher = stronger binding
Target: Sal-like protein 4, full length isoform A (SALL4, Homo sapiens, UniProt Q9UJQ4, residues 1-1053)
Sequence of UniProt Q9UJQ4 (whole entry, looked up): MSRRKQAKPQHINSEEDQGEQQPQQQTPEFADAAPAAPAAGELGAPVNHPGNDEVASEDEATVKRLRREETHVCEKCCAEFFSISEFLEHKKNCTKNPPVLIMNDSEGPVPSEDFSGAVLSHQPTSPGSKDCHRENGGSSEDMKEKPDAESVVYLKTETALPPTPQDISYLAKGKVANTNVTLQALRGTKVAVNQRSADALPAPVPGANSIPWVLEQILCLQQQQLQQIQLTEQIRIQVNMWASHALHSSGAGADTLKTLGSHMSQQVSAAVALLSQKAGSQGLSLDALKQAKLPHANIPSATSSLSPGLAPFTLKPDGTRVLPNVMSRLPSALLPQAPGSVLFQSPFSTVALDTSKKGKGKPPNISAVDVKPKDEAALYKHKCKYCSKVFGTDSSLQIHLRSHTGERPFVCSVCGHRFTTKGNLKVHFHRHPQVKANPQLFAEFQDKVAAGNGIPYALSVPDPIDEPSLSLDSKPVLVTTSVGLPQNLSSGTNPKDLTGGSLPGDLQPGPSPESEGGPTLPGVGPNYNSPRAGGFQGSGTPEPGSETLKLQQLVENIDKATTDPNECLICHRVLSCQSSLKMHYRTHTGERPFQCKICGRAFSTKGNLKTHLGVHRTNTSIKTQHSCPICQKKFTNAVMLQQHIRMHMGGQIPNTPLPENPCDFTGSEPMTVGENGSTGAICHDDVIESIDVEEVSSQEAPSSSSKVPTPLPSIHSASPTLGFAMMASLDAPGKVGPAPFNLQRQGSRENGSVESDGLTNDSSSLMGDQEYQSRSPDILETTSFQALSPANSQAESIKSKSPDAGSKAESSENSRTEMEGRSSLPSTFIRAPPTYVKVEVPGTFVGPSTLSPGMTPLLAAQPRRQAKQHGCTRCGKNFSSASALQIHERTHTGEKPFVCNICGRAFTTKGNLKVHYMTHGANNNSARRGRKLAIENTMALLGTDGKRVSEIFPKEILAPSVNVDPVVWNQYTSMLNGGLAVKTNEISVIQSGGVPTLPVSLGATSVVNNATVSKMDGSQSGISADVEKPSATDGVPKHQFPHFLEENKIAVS
Setting: 8-mer, flanks averaged, mean of replicates
Oligonucleotide	E-score
GTTTCCTA	0.127
CCTATCGC	-0.244
AGATCTAC	0.129
AAGTCCCG	-0.2
CTGAGGCA	-0.15
AGACCCGA	-0.121
ACAATCTC	-0.0313
GAGCTAGC	-0.158
GTTGGTTA	0.0439
GAAAAATA	0.371
CTGTAACA	0.112
CACCCGAC	-0.313
AGTAGCCG	-0.245
ATGACTGC	0.129
ACTCTTTC	-0.0219
AACGACGC	-0.0106
ACAAATGC	0.216
ACATGAAA	0.181
CAGTGCGG	-0.352
AGACATTG	0.0119
ATGTTGAG	0.134
ATGGCCGC	-0.29
AAATGGGA	0.0679
AAACCCAC	-0.0667
ATTTACCA	0.24

Series 4 — method: protein-binding microarray; molecule type: double-stranded DNA, one strand shown; matrix: in vitro; tested at: not given; direction: higher = stronger binding
Target: Myc proto-oncogene protein, bHLH-zipper, MAX partner unstated (MYC, Homo sapiens, UniProt P01106, residues 368-449)
Sequence of UniProt P01106 (368-449, looked up): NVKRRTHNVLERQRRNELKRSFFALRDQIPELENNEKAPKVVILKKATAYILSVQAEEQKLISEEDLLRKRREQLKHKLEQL
Setting: k-mer, scored over probes, only values ≥0.25
Oligonucleotide	E-score
CCTCCCCG	0.325
CCACGTCA	0.269
CCACGTCG	0.332
CCCGCCCA	0.38
CGTGCAAC	0.36
AGCGTGTG	0.351
GACCGCAC	0.278
GCGTGAGA	0.27
ACGCGTTA	0.318
CATGTTGC	0.387
CACACCGC	0.279
CTCATGCA	0.305
AATCGTGC	0.278
AGTGCGTG	0.326
CCCCGCAC	0.347
ATATGGCC	0.291
CACCGCAC	0.277
GAGGCGCA	0.298
ACGTGTGC	0.454
GCACATGC	0.465
AGCACACA	0.295
AACATGCA	0.312
AACGTGCA	0.387
AAAGCACG	0.323
CGTGCGCA	0.404

Series 5 — method: protein binding microarray; molecule type: double-stranded DNA, one strand shown; matrix: in vitro; tested at: not given; relative to: not given; direction: higher = stronger binding
Target: Histone acetyltransferase KAT6A, winged helix 2, GST fusion (KAT6A, Homo sapiens, UniProt Q92794, residues 85-181)
Setting: 8-mer, flanks averaged, mean of 2 arrays, mostly near background
Target sequence (chain): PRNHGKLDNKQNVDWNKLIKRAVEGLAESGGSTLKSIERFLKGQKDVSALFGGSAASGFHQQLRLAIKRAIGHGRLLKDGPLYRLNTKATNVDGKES
Oligonucleotide	E-score
GACCGATC	-0.0567
AGTCGGAG	0.106
AAAGTTGG	-0.0185
CATGCCTA	-0.167
CTGAGCGC	0.191
AACCTACC	-0.0592
ACTAGAAT	-0.116
CGCCCCAA	0.239
GAGAACAC	0.0958
ATCGTATC	-0.115
CGCTTTCC	0.0804
ACACCTCG	-0.177
ATGGCACA	-0.0383
CAGGTTAA	-0.131
AATCTGCA	-0.0507
GCCCGTAA	-0.0177
GCCTCTCC	0.0785
CTGCTATC	0.129
ACCACGCA	0.039
TGTGAAAA	0.0467
GTGATACA	-0.0319
AATCGGGG	-0.159
ACGGGACA	-0.0212
CGAGTTGC	0.121
GAGGATTA	-0.0194
